Results from different studies.
Numbered parts are unrelated; each lists some results of a single study.
UniProt P10721, sequence (whole entry, unmodified, looked up): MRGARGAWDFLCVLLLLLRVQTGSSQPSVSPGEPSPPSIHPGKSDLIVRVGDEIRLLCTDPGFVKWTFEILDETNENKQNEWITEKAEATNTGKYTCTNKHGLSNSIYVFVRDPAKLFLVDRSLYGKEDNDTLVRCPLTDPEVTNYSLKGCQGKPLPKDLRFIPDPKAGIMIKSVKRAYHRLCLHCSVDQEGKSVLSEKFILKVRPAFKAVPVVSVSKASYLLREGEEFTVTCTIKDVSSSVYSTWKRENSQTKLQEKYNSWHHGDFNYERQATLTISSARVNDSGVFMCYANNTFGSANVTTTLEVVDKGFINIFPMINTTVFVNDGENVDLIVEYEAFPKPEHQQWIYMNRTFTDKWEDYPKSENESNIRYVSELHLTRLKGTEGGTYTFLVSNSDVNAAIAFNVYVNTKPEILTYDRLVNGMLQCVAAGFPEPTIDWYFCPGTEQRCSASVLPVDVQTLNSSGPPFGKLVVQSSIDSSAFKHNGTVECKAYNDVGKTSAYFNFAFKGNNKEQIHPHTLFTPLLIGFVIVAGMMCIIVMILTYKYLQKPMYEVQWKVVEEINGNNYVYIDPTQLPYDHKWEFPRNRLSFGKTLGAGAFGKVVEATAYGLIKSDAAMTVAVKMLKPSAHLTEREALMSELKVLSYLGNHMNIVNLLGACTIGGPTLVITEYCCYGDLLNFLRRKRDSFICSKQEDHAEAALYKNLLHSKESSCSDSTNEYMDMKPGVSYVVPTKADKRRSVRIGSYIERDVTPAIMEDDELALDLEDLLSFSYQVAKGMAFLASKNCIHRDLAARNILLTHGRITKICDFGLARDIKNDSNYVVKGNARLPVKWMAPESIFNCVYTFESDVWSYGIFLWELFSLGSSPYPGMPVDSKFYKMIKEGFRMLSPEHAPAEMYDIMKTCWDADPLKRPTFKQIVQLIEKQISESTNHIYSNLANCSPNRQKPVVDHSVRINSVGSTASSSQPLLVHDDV
UniProt P49759, sequence (whole entry, looked up): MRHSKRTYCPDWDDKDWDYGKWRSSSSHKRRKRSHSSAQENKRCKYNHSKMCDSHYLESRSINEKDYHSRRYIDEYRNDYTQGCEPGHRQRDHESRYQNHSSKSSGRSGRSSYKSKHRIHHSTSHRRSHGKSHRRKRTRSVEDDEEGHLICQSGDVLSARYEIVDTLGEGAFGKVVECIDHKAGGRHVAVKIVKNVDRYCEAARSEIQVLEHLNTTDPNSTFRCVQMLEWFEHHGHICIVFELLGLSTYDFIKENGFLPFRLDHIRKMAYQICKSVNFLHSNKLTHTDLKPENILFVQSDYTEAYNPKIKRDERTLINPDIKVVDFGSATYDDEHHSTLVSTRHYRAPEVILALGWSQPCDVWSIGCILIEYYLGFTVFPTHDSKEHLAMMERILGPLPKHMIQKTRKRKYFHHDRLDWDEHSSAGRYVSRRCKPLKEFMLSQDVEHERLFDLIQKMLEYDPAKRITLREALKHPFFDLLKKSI
UniProt Q9H2X6, sequence (whole entry, looked up): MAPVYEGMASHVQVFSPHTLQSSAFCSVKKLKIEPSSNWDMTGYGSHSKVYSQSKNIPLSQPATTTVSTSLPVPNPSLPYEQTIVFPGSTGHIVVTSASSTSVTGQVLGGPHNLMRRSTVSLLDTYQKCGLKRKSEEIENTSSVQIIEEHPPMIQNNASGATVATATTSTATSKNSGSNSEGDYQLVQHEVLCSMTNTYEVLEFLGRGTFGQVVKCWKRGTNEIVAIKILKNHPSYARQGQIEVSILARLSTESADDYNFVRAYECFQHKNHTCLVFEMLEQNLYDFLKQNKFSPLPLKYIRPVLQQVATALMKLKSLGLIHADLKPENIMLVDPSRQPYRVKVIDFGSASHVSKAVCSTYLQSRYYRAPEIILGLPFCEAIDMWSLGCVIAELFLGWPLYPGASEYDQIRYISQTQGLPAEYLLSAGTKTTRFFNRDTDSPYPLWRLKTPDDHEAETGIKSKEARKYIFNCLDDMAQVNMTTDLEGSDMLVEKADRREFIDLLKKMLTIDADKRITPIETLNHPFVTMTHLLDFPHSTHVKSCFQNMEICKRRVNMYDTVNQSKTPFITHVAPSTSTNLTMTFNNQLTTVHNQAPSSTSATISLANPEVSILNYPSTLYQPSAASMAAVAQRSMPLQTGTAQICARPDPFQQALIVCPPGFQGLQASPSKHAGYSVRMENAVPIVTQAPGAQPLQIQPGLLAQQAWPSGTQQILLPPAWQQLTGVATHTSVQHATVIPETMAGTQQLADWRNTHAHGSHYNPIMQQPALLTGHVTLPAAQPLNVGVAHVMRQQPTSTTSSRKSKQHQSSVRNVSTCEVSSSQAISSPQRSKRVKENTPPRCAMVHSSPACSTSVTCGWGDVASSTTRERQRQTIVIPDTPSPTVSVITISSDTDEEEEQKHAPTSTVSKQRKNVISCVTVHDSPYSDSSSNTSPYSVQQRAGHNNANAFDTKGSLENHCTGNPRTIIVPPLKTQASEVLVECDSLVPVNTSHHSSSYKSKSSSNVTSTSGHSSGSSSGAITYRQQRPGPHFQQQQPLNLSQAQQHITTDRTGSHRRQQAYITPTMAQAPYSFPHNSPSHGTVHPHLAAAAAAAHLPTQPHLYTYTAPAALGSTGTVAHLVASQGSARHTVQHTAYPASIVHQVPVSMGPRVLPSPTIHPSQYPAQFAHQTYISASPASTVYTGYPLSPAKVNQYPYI
UniProt Q9C098, sequence (whole entry, looked up): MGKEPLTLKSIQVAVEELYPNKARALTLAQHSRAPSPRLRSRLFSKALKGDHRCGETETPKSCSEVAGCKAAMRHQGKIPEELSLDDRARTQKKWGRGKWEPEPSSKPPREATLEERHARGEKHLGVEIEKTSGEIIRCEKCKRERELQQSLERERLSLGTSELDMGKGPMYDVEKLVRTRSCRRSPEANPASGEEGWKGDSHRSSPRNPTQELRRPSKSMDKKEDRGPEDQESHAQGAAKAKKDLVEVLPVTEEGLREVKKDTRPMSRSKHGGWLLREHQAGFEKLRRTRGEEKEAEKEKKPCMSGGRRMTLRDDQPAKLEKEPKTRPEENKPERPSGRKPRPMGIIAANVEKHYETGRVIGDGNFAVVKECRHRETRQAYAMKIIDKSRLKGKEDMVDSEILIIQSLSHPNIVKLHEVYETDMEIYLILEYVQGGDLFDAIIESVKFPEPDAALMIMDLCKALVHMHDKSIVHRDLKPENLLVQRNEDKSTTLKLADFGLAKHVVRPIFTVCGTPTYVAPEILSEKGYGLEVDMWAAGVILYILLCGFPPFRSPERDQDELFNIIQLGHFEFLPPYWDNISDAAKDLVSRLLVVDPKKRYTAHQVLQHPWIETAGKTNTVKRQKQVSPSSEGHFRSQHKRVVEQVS
UniProt Q05655, sequence (whole entry, looked up): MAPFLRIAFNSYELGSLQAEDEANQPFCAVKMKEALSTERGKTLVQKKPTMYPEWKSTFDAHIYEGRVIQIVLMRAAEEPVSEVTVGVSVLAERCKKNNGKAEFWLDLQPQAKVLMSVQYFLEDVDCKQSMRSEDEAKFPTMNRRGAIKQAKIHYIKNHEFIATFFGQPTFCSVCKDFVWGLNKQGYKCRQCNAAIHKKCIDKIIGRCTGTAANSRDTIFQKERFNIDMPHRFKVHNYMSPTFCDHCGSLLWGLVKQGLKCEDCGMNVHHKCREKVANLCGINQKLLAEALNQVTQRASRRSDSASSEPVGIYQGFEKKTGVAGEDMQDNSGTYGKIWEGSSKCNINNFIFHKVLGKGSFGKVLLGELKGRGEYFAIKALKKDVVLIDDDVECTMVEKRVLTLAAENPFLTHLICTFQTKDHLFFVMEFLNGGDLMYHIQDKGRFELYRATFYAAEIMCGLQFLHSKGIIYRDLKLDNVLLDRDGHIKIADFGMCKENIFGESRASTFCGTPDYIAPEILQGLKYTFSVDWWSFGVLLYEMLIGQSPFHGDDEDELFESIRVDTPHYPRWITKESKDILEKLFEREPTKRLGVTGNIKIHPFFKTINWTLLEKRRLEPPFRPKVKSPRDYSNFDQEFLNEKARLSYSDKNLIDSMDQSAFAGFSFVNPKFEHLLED
UniProt Q16584, sequence (whole entry, looked up): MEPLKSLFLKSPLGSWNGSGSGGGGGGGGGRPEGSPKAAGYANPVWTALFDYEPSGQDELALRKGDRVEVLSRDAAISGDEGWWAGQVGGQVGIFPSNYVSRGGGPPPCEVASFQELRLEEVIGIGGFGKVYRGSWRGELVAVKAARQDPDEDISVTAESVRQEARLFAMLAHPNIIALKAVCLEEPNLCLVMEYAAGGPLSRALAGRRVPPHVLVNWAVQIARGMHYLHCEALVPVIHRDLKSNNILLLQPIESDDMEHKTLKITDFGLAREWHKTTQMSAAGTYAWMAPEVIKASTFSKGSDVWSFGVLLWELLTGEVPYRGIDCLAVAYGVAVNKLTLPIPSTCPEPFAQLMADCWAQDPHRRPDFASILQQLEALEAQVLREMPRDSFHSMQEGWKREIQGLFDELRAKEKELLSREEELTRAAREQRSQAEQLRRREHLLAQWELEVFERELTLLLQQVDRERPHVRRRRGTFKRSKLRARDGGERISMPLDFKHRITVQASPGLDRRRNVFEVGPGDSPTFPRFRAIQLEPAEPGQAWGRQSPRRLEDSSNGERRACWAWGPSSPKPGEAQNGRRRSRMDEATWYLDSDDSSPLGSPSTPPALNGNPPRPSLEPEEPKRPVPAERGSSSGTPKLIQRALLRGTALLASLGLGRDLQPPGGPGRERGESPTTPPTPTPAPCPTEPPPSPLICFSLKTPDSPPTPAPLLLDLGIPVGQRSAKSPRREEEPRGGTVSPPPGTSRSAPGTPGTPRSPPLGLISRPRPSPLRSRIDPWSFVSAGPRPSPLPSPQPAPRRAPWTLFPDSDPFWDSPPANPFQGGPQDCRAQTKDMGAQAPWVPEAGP

Series 1 — method: competition with immobilised ligand; concentration: 1 µM
Structure (SMILES): Cc1nccc(COC(=O)N2C[C@@H]3[C@@H](CNC(=O)c4ccc5[nH]nnc5c4)[C@@H]3C2)n1
| target | test | remaining binding |
| --- | --- | --- |
| CLK4 (Homo sapiens, UniProt Q9HAZ1) | cell-free assay | 97% |
| KIT (Homo sapiens, UniProt P10721, T670I/V559D) | cell-free assay | 95% |
| PKN1 (Homo sapiens, UniProt Q16512) | cell-free assay | 100% |
| STK3 (Homo sapiens, UniProt Q13188) | cell-free assay | 97% |
| PRKCD (Homo sapiens, UniProt Q05655) | cell-free assay | 95% |
| NEK11 (Homo sapiens, UniProt Q8NG66) | cell-free assay | 88% |
| KIT (Homo sapiens, UniProt P10721, V559D/V654A) | cell-free assay | 41% |
| HIPK2 (Homo sapiens, UniProt Q9H2X6) | cell-free assay | 81% |
| MAP3K11 (Homo sapiens, UniProt Q16584) | cell-free assay | 100% |
| CLK1 (Homo sapiens, UniProt P49759) | cell-free assay | 100% |
| CSNK1A1 (Homo sapiens, UniProt P48729) | cell-free assay | 86% |
| SBK3 (Homo sapiens, UniProt P0C264) | cell-free assay | 54% |
| CILK1 (Homo sapiens, UniProt Q9UPZ9) | binding | 100% |
| Ribosomal protein S6 kinase alpha-3, N-terminal kinase domain (RPS6KA3, Homo sapiens, UniProt P51812) | cell-free assay | 100% |
| DCLK3 (Homo sapiens, UniProt Q9C098) | cell-free assay | 100% |
| EGFR (Homo sapiens, UniProt P00533, G719S) | cell-free assay | 100% |

Series 2 — method: RNA Bind-n-Seq; molecule type: RNA; matrix: in vitro; concentration: 365 nM; relative to: no-protein control; direction: higher = stronger binding
Target: RNA binding protein fox-1 homolog 2, RRM domain, GST-SBP tag (RBFOX2, Homo sapiens, UniProt O43251-10, residues 100-194)
Setting: natural RNA segment, single round, ends assumed
Construct (chain): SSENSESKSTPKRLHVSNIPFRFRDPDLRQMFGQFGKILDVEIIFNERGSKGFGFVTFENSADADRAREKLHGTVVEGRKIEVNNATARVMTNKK
| Oligonucleotide | RBNS enrichment (R) |
| --- | --- |
| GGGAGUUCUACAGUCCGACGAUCCAUCAGUGUCUCUGCUGUACUGGAAGCCACCUCUGGUUUUCCUCUGAAAUAUUAAAAGACAGAAUCCAAAGAACGCCUUUAACUCUAGUCUUAUUAGGAUGAUUUUCUAUUGGAAUUCUCGGGUGCCAA | 0.411 |
| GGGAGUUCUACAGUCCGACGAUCCAGAAGUGCAUCGGGAUUCAGAAUGACCAACCUAAGAAGCACAAAUUUAGUUUGGGUGUUCCUCAUCACAUGUAUAUACGGACUAUCCAUUGAACUUAAUCUGUGUGGCUUGGAAUUCUCGGGUGCCAA | 0.228 |
| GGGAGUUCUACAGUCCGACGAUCUGAUUCCUUUUUUCAAAAUCCAAAAAGAAAUGAUGUUGGAGAAGGGAAGUUGAACGAGCAUAGUCCAAAAAGCUCCUGGGGCGUCCAGGCCGCGCCCUUUCCCCGACGCCUGGAAUUCUCGGGUGCCAA | 0.231 |
| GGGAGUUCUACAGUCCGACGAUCCUAAUAUAGGCAGCAGACUGUUUUACGGGUUGCUGUUUUAACAUGGGUUUUUGUCAGAUCCAUGGUCUUAGGACUUGACUGAUGAGCUUUCAGUGAAGAAUCCUCUAAGAUGGAAUUCUCGGGUGCCAA | 0.314 |
| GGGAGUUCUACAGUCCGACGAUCUUGAUUGGUGUUUCUGAGCAUUCAGACUCCGCACCCUCAUUUCUAAUAAAUGCAACAUUGGACCCGCUUCCCCUUUCUUCAGCGCCUAGGCAGCUGGCCUUGGCUCUACAUGGAAUUCUCGGGUGCCAA | 0.661 |
| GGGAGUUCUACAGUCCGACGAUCUGCUCUGGGCCCAUGAGGCCUACUUCUUCCUUUUCUCAUGGAAUCCUGGGUAGAAUCUUAAUAAUAGAAGGACUUAGAGAGAAAAUCAAAUCCACCCUCCUUGUGGGGAAUGGAAUUCUCGGGUGCCAA | 0.363 |
| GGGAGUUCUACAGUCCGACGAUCCUACACAUACAUGCACAUAGACACACACAUGAACACACUGAAGAUAUUUCCUUCAGGUGUGUGUAAAAUAUGCUGCUUGGAUUGAAAUUCAAAUGGGAUUGAUUAGUCAAUGGAAUUCUCGGGUGCCAA | 0.333 |
| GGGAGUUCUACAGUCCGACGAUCUGCUCAGUUAGUUGUUGGUUAUUUAAAGCACACUCAGUUUGCACUCAUUUCCCCUAAACAACUGGCACAGCAGGUUGACCAUCCUUAAACUGCUGUGAAACAUGCCACGUUGGAAUUCUCGGGUGCCAA | 0.248 |

Series 3 — method: protein-binding microarray; molecule type: double-stranded DNA, one strand shown; matrix: in vitro; concentration: 2540 nM top; setting: 60-bp whole probe; with: salmon DNA 0.4 mg/ml; relative to: random background probes; direction: higher = stronger binding; all sequences stand within: GCCTAGCAC … GTCTTGATTCGCTTGACGCTGCTG
Target: Interferon regulatory factor 3, full length, phosphomimetic (IRF3, Homo sapiens, UniProt Q14653, residues 1-427, S386D/S396D/S398D/S402D/T404D/S405D)
Target sequence (chain): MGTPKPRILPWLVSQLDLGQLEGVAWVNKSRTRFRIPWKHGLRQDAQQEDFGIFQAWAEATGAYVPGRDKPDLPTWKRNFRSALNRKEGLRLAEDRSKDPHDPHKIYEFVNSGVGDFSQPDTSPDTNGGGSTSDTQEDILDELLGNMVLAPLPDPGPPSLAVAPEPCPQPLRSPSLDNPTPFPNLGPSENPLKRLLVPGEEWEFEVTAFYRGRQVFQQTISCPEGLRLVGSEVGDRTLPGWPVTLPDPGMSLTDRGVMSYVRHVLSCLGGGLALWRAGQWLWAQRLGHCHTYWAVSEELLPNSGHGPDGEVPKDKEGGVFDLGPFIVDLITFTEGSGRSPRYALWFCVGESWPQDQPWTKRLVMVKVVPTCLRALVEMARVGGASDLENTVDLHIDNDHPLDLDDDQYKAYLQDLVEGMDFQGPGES
| Oligonucleotide | fitted relative affinity [z-score] |
| --- | --- |
| TTAGGTTTCGGGTTTCAGTTAGTGCTA | 5.6 |
| TCTCCTCCAGGTTCTCTGACAGTGCTA | 0.131 |
| TTTTTTTTTTTTTCTGATCCGTGCTAG | 1.95 |
| GACGGTTTCGGCATCGGGACGTGCTAG | 3.59 |
| TCACCTTTCTCTCTGTGACTGTGCTAG | 5.47 |
| GACGGTTTCCGTATCGGGACGTGCTAG | 6.52 |
| GTCGGTCTCCTTTTCCTGACGTGCTAG | 5.71 |
| GACGGTTTGGGTCTCGGGACGTGCTAG | 0.164 |

Other studies, line by line
| Compound | target or system | test | conditions | endpoint | value |
| --- | --- | --- | --- | --- | --- |
| O=C(O)CCCC[C@@H]1CCSS1 | A-375 |  | 100 µM, 36 h | viability | 94.9% |
| C[C@H]1C[C@H]2[C@@H]3CCC4=CC(=O)C=C[C@]4(C)[C@@]3(Cl)[C@@H](O)C[C@]2(C)[C@@]1(O)C(=O)CO | Sarcocystis neurona | parasite growth | 10 µM, secondary screen | inhibition | -0.6% |
| NNC(=O)c1ccncc1 | A-375 |  | 100 µM, 36 h | viability | 83.9% |
| COc1ccc2[n-]c([S+]([O-])Cc3ncc(C)c(OC)c3C)nc2c1.COc1ccc2[n-]c([S+]([O-])Cc3ncc(C)c(OC)c3C)nc2c1.[Mg+2] (stereo not drawn) | Sarcocystis neurona | parasite growth | 10 µM, secondary screen | inhibition | 40.9% |
